Published values collected from several papers.
A part holds a random share of what one study measured.

Series 1
Target: Prothrombin, mature alpha-thrombin (F2, Homo sapiens, UniProt P00734)
Technique: aptamer microarray, sandwich
Form: DNA with 2'F-ANA
Sample: in vitro
Tested at: 200 nM
Notes: whole 15-mer aptamer, many near background
Together with: Cy3 exosite-II aptamer, 400 nM
Reading: higher = stronger binding
Quantity: mean fluorescence intensity
Strand: GGTTGGTGTGGTTGG
2'F-ANA at 4 6 7 11 12 14 15: 90.6 a.u.
2'F-ANA at 1 2 4 8 9 11: 126 a.u.
2'F-ANA at 2 3 4 5 8 11: 85.7 a.u.
2'F-ANA at 1 2 6 7 9 10 12 13 14 15: 52 a.u.
2'F-ANA at 2 3 4 6 7 8 13 14: 259 a.u.
2'F-ANA at 2 4 5 7 8 10 11 12 13 15: 47.3 a.u.
2'F-ANA at 3 8 9 11 12: 1250 a.u.
2'F-ANA at 2 4 5 7 8 9 12: 178 a.u.
2'F-ANA at 1 2 7 10 14 15: 46.6 a.u.
2'F-ANA at 1 3 5 6 8 10 11 12 13 14 15: 49.2 a.u.
2'F-ANA at 1 2 4 5 6 10 11 12 14: 75.2 a.u.
2'F-ANA at 2 6 8 9 10 11 12: 120 a.u.
2'F-ANA at 3 5 7 9 12 14: 78.7 a.u.
2'F-ANA at 2 4 5 9 11 12 13: 78.9 a.u.
2'F-ANA at 1 2 5 6 9 11 12 14 15: 49.6 a.u.
2'F-ANA at 3 7 9 10 12 15: 641 a.u.
2'F-ANA at 1 3 6 7 8 12 14 15: 130 a.u.
2'F-ANA at 1 2 4 7 8 10 13 14: 42.3 a.u.
2'F-ANA at 1 2 3 4 5 9 10 11 12 13: 51.2 a.u.
2'F-ANA at 5 6 11 12 15: 110 a.u.

Series 2
Target: Phosphate system positive regulatory protein PHO4, full length, GST-tagged (PHO4, Saccharomyces cerevisiae, UniProt P07270, residues 1-312)
Technique: competition protein-binding microarray
Form: double-stranded DNA, one strand shown
Sample: in vitro
Tested at: 2 µM
Notes: whole 60-bp probe, lowest competitor level
Together with: Cbf1 competitor, 0.05 µM
Reading: higher = stronger binding
Quantity: fluorescence intensity
Construct (chain): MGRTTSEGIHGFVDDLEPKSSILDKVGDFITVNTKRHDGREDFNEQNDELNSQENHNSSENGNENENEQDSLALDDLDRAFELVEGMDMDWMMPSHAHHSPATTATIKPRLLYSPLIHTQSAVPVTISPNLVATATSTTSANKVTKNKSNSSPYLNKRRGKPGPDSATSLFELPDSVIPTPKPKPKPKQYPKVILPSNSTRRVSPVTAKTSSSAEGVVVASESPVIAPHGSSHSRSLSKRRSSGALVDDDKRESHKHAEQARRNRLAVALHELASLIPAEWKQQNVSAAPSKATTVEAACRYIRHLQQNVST
TTTCGGCTTCACCTACACGTTTGATTAATCTTAAAGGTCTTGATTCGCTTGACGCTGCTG: 7200 a.u.
TTCTTTAGAGGTTCACACGTAGTAAAAGAAAAAAAAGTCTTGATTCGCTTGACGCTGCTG: 6110 a.u.
AAATTACTAAGTTGGTAAGTGGGTGACGCCGTATGAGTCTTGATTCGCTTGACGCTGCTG: 3250 a.u.
CGGGGTTAAGTTTGTCACACAACTTGCTTGCAGCAGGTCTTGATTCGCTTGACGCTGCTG: 3730 a.u.
AAAGCGGTAATTTGGTAGGTGGGTGCAGATATCTATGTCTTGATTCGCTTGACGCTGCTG: 4600 a.u.
CTTGAATAGTCATCGCACGATTCTGGAGTGTAAGCAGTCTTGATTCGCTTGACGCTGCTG: 7880 a.u.
CTTTGTGATAGGCTTCACGTGTGAAATTGACACAGAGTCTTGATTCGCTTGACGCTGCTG: 11400 a.u.
CTGAGCATAGCCAATCACGTGGCCCACTCCCCGGCTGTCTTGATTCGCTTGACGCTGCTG: 16600 a.u.
CAGAGTAATGACTGTCATGATGAAGGCAAAAGGAGAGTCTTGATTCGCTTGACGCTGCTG: 3600 a.u.
ATGTTCCTCAAGGTGCTCGTGTCCACACCGAAAAATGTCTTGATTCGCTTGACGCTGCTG: 9820 a.u.
CCATCAAGTGTTCGTCACGTTTTTGCCGCCGAACTCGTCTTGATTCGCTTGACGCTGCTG: 14000 a.u.
GCCCGGACACAGGGAATCGTGCGGAGCCGGGGATAAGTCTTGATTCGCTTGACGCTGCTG: 5550 a.u.
TGCGCAACAACTTGGTACGTGGGTGTATGTCTAGAAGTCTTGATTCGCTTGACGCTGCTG: 9100 a.u.
CTTCTGTAAATTTGAAGGGTGGGTGGACGCGCCCCGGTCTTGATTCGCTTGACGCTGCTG: 4630 a.u.
TTGCCATGGCGATCGCGCGTGGGTATGGTCTTTCCCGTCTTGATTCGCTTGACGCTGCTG: 7640 a.u.
GATCAGCATATCCGTCACGTTCTGCTCATCGGGACTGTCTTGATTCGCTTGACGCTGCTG: 12800 a.u.
AGCTGCAATTAATGCAGTTGAGAACTAGCTTTTTTTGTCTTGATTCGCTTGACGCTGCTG: 2870 a.u.

Series 3
Target: RNA binding protein fox-1 homolog 2, RRM domain, GST-SBP tag (RBFOX2, Homo sapiens, UniProt O43251-10, residues 100-194)
Technique: RNA Bind-n-Seq
Form: RNA
Sample: in vitro
Tested at: 365 nM
Notes: natural RNA segment, single round, ends assumed
Reference: no-protein control
Reading: higher = stronger binding
Quantity: RBNS enrichment (R)
Construct (chain): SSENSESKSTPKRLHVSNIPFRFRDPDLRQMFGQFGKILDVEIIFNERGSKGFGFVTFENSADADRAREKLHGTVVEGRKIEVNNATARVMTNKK
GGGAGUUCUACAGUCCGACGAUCCGGCCUGACCCGCAAUGGGCAGAGGGUGGGUGGGACCCCCUGCUGCAGGGCAGAGUUCAGGUCCACUGGGCUGAGUGUCCCCUUGGGCCCAUGGCCCAGUCACUCAGGGGUGGAAUUCUCGGGUGCCAA: 0.513
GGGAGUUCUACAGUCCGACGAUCUGGAGCAGGAUCCUAAGGACGCACAAUAUCAGUUGUGCGUGCUGUAAAGGGACAAACCGAGGAAGUAGAGGAAGCUGCGGCACUGUGACCCAUUCAAGGCUAGCACAGUUUGGAAUUCUCGGGUGCCAA: 0.366
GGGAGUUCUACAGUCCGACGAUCCAAGUGAUUGUGGACUCCUGGCUCAUCAACUCAUGCCCUCUUCCAUACCCUCAUGGCUUCACAGUCAAGGUCAGCAGGAAGCUCAUUGGUCACCUUCAUGGUGACCUCUCUGGAAUUCUCGGGUGCCAA: 0.262
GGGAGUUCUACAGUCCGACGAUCGCCAUUGGCUUUAGGUCUCUGGACCAGAGACAGGAGAGGCUUUGCGACUCCAAAGCUCUAGGCCAGAUGUUACAGUUGUUCGCAGCAGGCUCGAUUCUGCCCUCUCUUUUUGGAAUUCUCGGGUGCCAA: 0.233
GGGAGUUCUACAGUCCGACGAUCCUACUGUUCAUUGUAAAGGGUCAGGCCCUAUCAGCAGCACUGAUGGGAAUAAAAGUAUUAUUGCUUUGAUGGCGUUUGUCUCAGCAAGUCUGUAGUACAUAUCCCCACUAUGGAAUUCUCGGGUGCCAA: 0.272
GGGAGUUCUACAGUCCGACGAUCUAUAUAGAUUAUUGUAACCUUUCAACCUGAAAAUCAAGCAGUAUGAGAGUUUAGUUAUUUGUAUGUGUCACUAGUGUCUAAUGAAGCUUUUAAAAUCUACAAUUUCUUCUUGGAAUUCUCGGGUGCCAA: 0.297
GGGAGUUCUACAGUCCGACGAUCGGAAAUGUUGAAAGAUUGGACAGGGAAGAAUAGCGCUUGGUGUCCUCAUGGUCAUUCUGUCUUACCUUAGUGGCUUGACAGUACUUACUAUAGCUCCUGAGGGAAGCCAAUGGAAUUCUCGGGUGCCAA: 0.408
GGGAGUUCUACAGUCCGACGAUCAUAACCAGCAGUCAGAGAUUCUUUUUUAAUCCUUGGAGACAGGGAAAGGGACAGAUAGCUUUCCAAGGACAUGAGACUGUGCAAAGCCUCUUUGCUGUUUCUCUGGGCUCUGGAAUUCUCGGGUGCCAA: 0.346

Series 4
Target: Ras GTPase-activating protein-binding protein 1, full length (G3BP1, Homo sapiens, UniProt Q13283)
Sequence of UniProt Q13283 (whole entry, looked up): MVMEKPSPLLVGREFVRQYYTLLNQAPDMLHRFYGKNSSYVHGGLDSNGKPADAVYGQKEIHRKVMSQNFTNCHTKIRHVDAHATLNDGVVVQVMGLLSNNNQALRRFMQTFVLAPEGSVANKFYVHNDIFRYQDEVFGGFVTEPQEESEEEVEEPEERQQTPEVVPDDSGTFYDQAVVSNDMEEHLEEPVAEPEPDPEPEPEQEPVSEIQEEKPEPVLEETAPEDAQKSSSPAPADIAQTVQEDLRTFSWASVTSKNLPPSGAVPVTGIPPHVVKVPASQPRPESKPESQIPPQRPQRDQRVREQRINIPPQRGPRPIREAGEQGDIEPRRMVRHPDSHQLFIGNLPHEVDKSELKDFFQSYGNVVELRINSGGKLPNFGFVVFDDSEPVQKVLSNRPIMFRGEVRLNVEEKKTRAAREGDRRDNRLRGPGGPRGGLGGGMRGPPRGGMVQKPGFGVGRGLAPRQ
Technique: RNA Bind-n-Seq
Form: RNA
Sample: in vitro
Tested at: 200 nM
Notes: whole 134-nt RNA, ends assumed
Together with: 150 mM LiCl
Reference: input library
Reading: higher = stronger binding
Quantity: log2 enrichment
Library: 7-deaza-guanosine replaces G
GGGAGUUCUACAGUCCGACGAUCAGUCCUGUGCUACACAUCGUAUGUACCGAAUCGGGUUUUUUUGGGAAAAAGGGAGGGAAAGUAUUAUGUUACGCCGUUCGGAUCUGCACUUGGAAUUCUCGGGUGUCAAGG: -1.6
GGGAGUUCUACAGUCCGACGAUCUAACUUUAGAGGAGGAUCUGAUGGAUAUGGCAGUGGACGUGGAUUUGGGGAUGGCUAUAAUGAGUAUGGAGGAGGACCUGGAGGUGGCAAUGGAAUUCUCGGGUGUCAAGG: 0.288
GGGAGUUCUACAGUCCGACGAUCCUCAAGUCCUGUGCUACACAUCGUAUGUACCGAAUCGGGGUGGGUGGGGUGGGAAAGUAUUAUGUUACGCCGUUCGGAUCUGCACUUCCAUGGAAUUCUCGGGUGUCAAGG: -0.672
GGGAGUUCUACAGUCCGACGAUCAGUCCUGUGCUACACAUCGUAUGUACCGAAUCGGGGUUUGGGGUUUUUGGGGUGGGGAAAGUAUUAUGUUACGCCGUUCGGAUCUGCACUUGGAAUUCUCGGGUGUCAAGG: 0.34
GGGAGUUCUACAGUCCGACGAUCAACUGGAAGAACAGACCCGUAGGGCUCUGGAACUUGAGCAGGAACGGAAGCGUGCCCAGAGCGAGGCUGAAAAGCUGGCCAAGGAGCGUCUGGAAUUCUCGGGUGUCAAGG: -0.796
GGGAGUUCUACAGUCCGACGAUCUGGCCCUGGUGGCAUGCGGGGAGGAAGAGGUGGCCUCAUGGAUCGUGGUGGUCCCGGUGGAAUGUUCUGAGGUGGCCGUGGUGGAGACAGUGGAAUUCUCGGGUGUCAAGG: -0.0488
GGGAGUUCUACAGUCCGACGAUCUCCUGUGCUACACAUCGUAUGUACCGAAUCGGGGCCCCCGGGCCCCCGGGGCCCCCGGGAAAGUAUUAUGUUACGCCGUUCGGAUCUGCAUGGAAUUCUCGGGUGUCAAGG: -1.8
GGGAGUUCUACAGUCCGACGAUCUCCUCAAGUCCUGUGCUACACAUCGUAUGUACCGAAUCGGGAGGAGGAGGGAAAGUAUUAUGUUACGCCGUUCGGAUCUGCACUUCCAGCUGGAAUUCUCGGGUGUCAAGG: -0.508

A few entries again (series 3):
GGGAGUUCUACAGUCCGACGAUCCAAGUGAUUGUGGACUCCUGGCUCAUCAACUCAUGCCCUCUUCCAUACCCUCAUGGCUUCACAGUCAAGGUCAGCAGGAAGCUCAUUGGUCACCUUCAUGGUGACCUCUCUGGAAUUCUCGGGUGCCAA: 0.262
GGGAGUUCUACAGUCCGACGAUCGCCAUUGGCUUUAGGUCUCUGGACCAGAGACAGGAGAGGCUUUGCGACUCCAAAGCUCUAGGCCAGAUGUUACAGUUGUUCGCAGCAGGCUCGAUUCUGCCCUCUCUUUUUGGAAUUCUCGGGUGCCAA: 0.233
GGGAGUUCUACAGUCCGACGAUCCUACUGUUCAUUGUAAAGGGUCAGGCCCUAUCAGCAGCACUGAUGGGAAUAAAAGUAUUAUUGCUUUGAUGGCGUUUGUCUCAGCAAGUCUGUAGUACAUAUCCCCACUAUGGAAUUCUCGGGUGCCAA: 0.272
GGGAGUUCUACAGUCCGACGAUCUAUAUAGAUUAUUGUAACCUUUCAACCUGAAAAUCAAGCAGUAUGAGAGUUUAGUUAUUUGUAUGUGUCACUAGUGUCUAAUGAAGCUUUUAAAAUCUACAAUUUCUUCUUGGAAUUCUCGGGUGCCAA: 0.297
